Published values collected from several papers.
Protocols differ between the studies behind these lines. ± gives the spread as reported.

SMILES = O=C(CCc1ccc(CNC(C(=O)OC2CCCC2)C2CCCCC2)cn1)NO (stereo not drawn); test system = human, plasma; setting = oral, 20 mg once daily, day 7, geometric mean; Cmax = 109 ng/mL
SMILES = CCc1cc(Nc2nc(-c3ccc(-n4cnc(C)c4)c(F)c3)cs2)c(C)cc1C; test system = human, both sexes, plasma; setting = oral, 100 mg, day 1, multiple dose, geometric mean; Cmax = 322 ng/mL
SMILES = CC(=O)N[C@H](CC(=O)O)C(=O)N[C@H](Cc1c[nH]c2ccccc12)C(=O)N[C@H](Cc1ccccc1)C(=O)N[C@H](CCCCN)C(=O)N[C@H](C)C(=O)N[C@H](Cc1ccccc1)C(=O)N[C@H](Cc1ccc(O)cc1)C(=O)N[C@H](CC(=O)O)C(=O)N[C@H](CCCCN)C(=O)N[C@@H](C(=O)N[C@H](C)C(=O)N[C@H](CCC(=O)O)C(=O)N[C@H](CCCCN)C(=O)N[C@H](Cc1ccccc1)C(=O)N[C@H](CCCCN)C(=O)N[C@H](CCC(=O)O)C(=O)N[C@H](C)C(=O)N[C@H](Cc1ccccc1)C(N)=O)C(C)C; test system = human, statin-treated high-risk CHD, both sexes, plasma; setting = oral, 300 mg daily, day 13, 0 to 8 h, mean, undetectable set to 0; Cmax = 7.55 ng/mL
SMILES = C=CC(=O)Nc1cc(Nc2nccc(-c3cn(C4CC4)c4ccccc34)n2)c(OC)cc1N(C)CCNC; test system = healthy Chinese male human, plasma; setting = oral, 110 mg almonertinib, metabolite, [14C] single dose; Cmax = 22.2 ± 3.94 ng/mL
SMILES = Cc1nc(C)c(C=[N+]([O-])C(C)(C)C)nc1C; test system = human both sexes, serum; setting = oral, 1200 mg twice daily, 7 days, tablet; Cmax = 114000 nM
SMILES = CC12CC(c3ccc(S(C)(=O)=O)cc3)C3=C4CCC(=O)C=C4CCC3C1CCC2(O)C(F)(F)C(F)(F)F (stereo not drawn); test system = human, plasma; setting = oral, 4 mg, dosed on day 4, geometric mean, together with: itraconazole 200 mg/day; Cmax = 29.5 ng/mL
SMILES = O=C(CCc1ccc(CNC(C(=O)O)C2CCCCC2)cn1)NO (stereo not drawn); test system = human, plasma; setting = oral, 20 mg once daily, day 7, geometric mean; Cmax = 69.5 ng/mL
SMILES = CC(C)(O)c1ncc([S@](N)(=O)=NC(=O)Nc2c3c(cc4c2CCC4)CCC3)s1; test system = healthy human; setting = oral, 30 mg once daily, day 14, capsule formulation, geometric mean; Cmax = 2770 ng/mL
SMILES = CN[C@@H](CCOc1cccc2ccccc12)c1ccccc1; test system = healthy male humans, plasma; setting = oral, 60 mg of dapoxetine, together with: udenafil 200 mg; Cmax = 12.7 ± 6.17 ng/mL
SMILES = CC[C@H](C)[C@H](NC(=O)[C@H](CC(C)C)NC(=O)[C@H](Cc1c[nH]c2ccccc12)NC(=O)[C@H](C)NC(=O)[C@@H](NC(=O)[C@H](Cc1ccccc1)NC(=O)[C@H](CC(=O)O)NC(=O)[C@H](CCCNC(=N)N)NC(=O)[C@H](C)NC(=O)[C@H](C)NC(=O)[C@H](CC(C)C)NC(=O)[C@H](C)NC(=O)[C@H](CC(=O)O)NC(=O)[C@H](CC(C)C)NC(=O)[C@@H](NC(=O)[C@@H](NC(=O)[C@H](C)NC(=O)[C@H](CC(C)C)NC(=O)[C@H](CCC(=O)O)NC(=O)[C@H](CO)NC(=O)[C@H](CO)NC(=O)[C@H](Cc1ccccc1)NC(=O)[C@@H](NC(=O)CNC(=O)[C@H](CCC(=O)O)NC(=O)CNC(=O)[C@@H](N)Cc1c[nH]cn1)[C@@H](C)O)[C@@H](C)O)[C@@H](C)CC)[C@@H](C)CC)C(=O)N[C@@H](C)C(=O)N[C@H](C(=O)N[C@@H](CCCCN)C(=O)N[C@H](C(=O)N[C@H](C(=O)N[C@@H](CC(=O)O)C(=O)N[C@@H](CCCCN)C(=O)O)[C@@H](C)O)[C@@H](C)CC)[C@@H](C)O; test = immunoaffinity LC-MS/MS; test system = healthy human subjects, plasma; setting = subcutaneous, 5 mg once weekly, day 36 after 6 doses, steady state, geometric mean; Cmax = 2.51 nM
SMILES = Cn1c(=O)oc2ccc(-c3ccc(CC(C#N)NC(=O)C4CNCCCO4)c(F)c3)cc21 (stereo not drawn); test system = human volunteers, plasma; setting = 15 mg single dose, fasted, geometric mean; Cmax = 53.7 ng/mL
SMILES = CC[C@H](C)[C@H](NC(=O)[C@H](CC(C)C)NC(=O)[C@H](Cc1c[nH]c2ccccc12)NC(=O)[C@H](C)NC(=O)[C@@H](NC(=O)[C@H](Cc1ccccc1)NC(=O)[C@H](CC(=O)O)NC(=O)[C@H](CCCNC(=N)N)NC(=O)[C@H](C)NC(=O)[C@H](C)NC(=O)[C@H](CC(C)C)NC(=O)[C@H](C)NC(=O)[C@H](CC(=O)O)NC(=O)[C@H](CC(C)C)NC(=O)[C@@H](NC(=O)[C@@H](NC(=O)[C@H](C)NC(=O)[C@H](CC(C)C)NC(=O)[C@H](CCC(=O)O)NC(=O)[C@H](CO)NC(=O)[C@H](CO)NC(=O)[C@H](Cc1ccccc1)NC(=O)[C@@H](NC(=O)CNC(=O)[C@H](CCC(=O)O)NC(=O)CNC(=O)[C@@H](N)Cc1cnc[nH]1)[C@@H](C)O)[C@@H](C)O)[C@@H](C)CC)[C@@H](C)CC)C(=O)N[C@@H](C)C(=O)N[C@H](C(=O)N[C@@H](CCCCN)C(=O)N[C@H](C(=O)N[C@H](C(=O)N[C@@H](CC(=O)O)C(=O)N[C@@H](CCCCN)C(=O)N[C@@H](CCCCN)C(=O)N[C@@H](CCCCN)C(=O)N[C@@H](CCCCN)C(=O)N[C@@H](CCCCN)C(=O)N[C@@H](CCCCN)C(N)=O)[C@@H](C)O)[C@@H](C)CC)[C@@H](C)O; test system = healthy humans, plasma; setting = subcutaneous, 10 mg once weekly, 6 doses, day 36, geometric mean; Cmax = 5.94 nM
SMILES = CN1CCC[C@]1(C)/C=C/S(=O)(=O)NC(=O)Nc1c2c(cc3c1CCC3)CCC2; test system = human, plasma; setting = oral, 12.5 to 100 mg twice daily, 14 days, first dose at steady state; Cmax = 2000 to 16400 ng/mL
SMILES = CCc1c2c(nc3ccc(O)cc13)-c1cc3c(c(=O)n1C2)COC(=O)[C@]3(O)CC; test system = human patients, plasma; setting = intravenous, 24 mg/m^2 of parent drug; Cmax = 54 ng/mL
SMILES = [2H]C([2H])(c1ccc(O)c(O)c1)[C@]([2H])(N)C(=O)O; test system = human, plasma; setting = oral, 150 mg single, geometric LS mean, together with: 37.5 mg carbidopa; Cmax = 2160 ng/mL
SMILES = CC[C@H](C)[C@H](NC(=O)[C@H](CC(C)C)NC(=O)[C@H](Cc1c[nH]c2ccccc12)NC(=O)[C@H](C)NC(=O)[C@@H](NC(=O)[C@H](Cc1ccccc1)NC(=O)[C@H](CC(=O)O)NC(=O)[C@H](CCCNC(=N)N)NC(=O)[C@H](C)NC(=O)[C@H](C)NC(=O)[C@H](CC(C)C)NC(=O)[C@H](C)NC(=O)[C@H](CC(=O)O)NC(=O)[C@H](CC(C)C)NC(=O)[C@@H](NC(=O)[C@@H](NC(=O)[C@H](C)NC(=O)[C@H](CC(C)C)NC(=O)[C@H](CCC(=O)O)NC(=O)[C@H](CO)NC(=O)[C@H](CO)NC(=O)[C@H](Cc1ccccc1)NC(=O)[C@@H](NC(=O)CNC(=O)[C@H](CCC(=O)O)NC(=O)CNC(=O)[C@@H](N)Cc1c[nH]cn1)[C@@H](C)O)[C@@H](C)O)[C@@H](C)CC)[C@@H](C)CC)C(=O)N[C@@H](C)C(=O)N[C@H](C(=O)N[C@@H](CCCCN)C(=O)N[C@H](C(=O)N[C@H](C(=O)N[C@@H](CC(=O)O)C(=O)N[C@@H](CCCCN)C(=O)N[C@@H](CCCCN)C(=O)O)[C@@H](C)O)[C@@H](C)CC)[C@@H](C)O; test = immunoaffinity LC-MS/MS; test system = healthy human subjects, plasma; setting = subcutaneous, 5 mg once weekly, day 36 after 6 doses, steady state, geometric mean; Cmax = 0.371 nM
SMILES = CC1C(c2c(F)ccc(F)c2F)CC(N[14C](=O)c2cnc3c(c2)CC2(C3)C(=O)Nc3ncccc32)C(=O)N1CC(F)(F)F (stereo not drawn); test = liquid scintillation counting, refers to: total radioactivity; test system = human, plasma; setting = oral, 50 mg, single dose, 14C-labelled; Cmax = 349 ± 82.6 ng-eq/mL
SMILES = [2H]C([2H])([2H])Oc1cc2c(cc1OC([2H])([2H])[2H])[C@H]1CC(=O)[C@H](CC(C)C)CN1CC2; test system = human CYP2D6 extensive metabolizers, plasma; setting = oral, 25 mg, fasted, arithmetic mean; Cmax = 0.3 ng/mL

Repeated from above:
SMILES = CCc1c2c(nc3ccc(O)cc13)-c1cc3c(c(=O)n1C2)COC(=O)[C@]3(O)CC; test system = human patients, plasma; setting = intravenous, 24 mg/m^2 of parent drug; Cmax = 54 ng/mL
SMILES = Cc1nc(C)c(C=[N+]([O-])C(C)(C)C)nc1C; test system = human both sexes, serum; setting = oral, 1200 mg twice daily, 7 days, tablet; Cmax = 114000 nM
SMILES = CC12CC(c3ccc(S(C)(=O)=O)cc3)C3=C4CCC(=O)C=C4CCC3C1CCC2(O)C(F)(F)C(F)(F)F (stereo not drawn); test system = human, plasma; setting = oral, 4 mg, dosed on day 4, geometric mean, together with: itraconazole 200 mg/day; Cmax = 29.5 ng/mL
